# Measurements of several laboratories.
# Lines come from different studies, so protocols differ. “And” joins repeats or separate records; there may be more than shown. Numbers after ± are the reported error.
Compound,tested on,test,system,setting,scale,quantity,result
CCc1c(C)c2ccc(OC(C)C)c(C)c2oc1=O,PC-3,"cell growth or viability, MTT",,500 µg/mL,,viability,2.47%
COC(=O)c1cc(NC2=NC(=O)C(=Cc3ccc(N(C)C)cc3)S2)ccc1OC(C)=O,A549,refers to: BECN1,,"2.93 µM, 24 h",relative to: DMSO,mRNA level,187 fold change
C=C1C(=O)OC2C1CCC(C)(O)C13C=CC(C)(C21)C1(C3)C(=O)OC2C3C(C)=CCC3C(C)(O)CC(O)C21 (stereo not shown),AML12 mouse hepatocytes,"lipid accumulation, Nile Red staining",,"maximum safe concentration, 24 h, added: palmitic acid/oleic acid",,maximum inhibition,33.8 ± 2.59%
CCCCN1C(=O)c2cccc3c(NCCCCCCN4CCOCC4)ccc(c23)C1=O,BHK-21,confocal colocalization,,"0.2 µM, added: Mito-Tracker Red 0.3 µM",,Pearson's coefficient,0.67 ± 0.02
CN1CCCNC(=O)c2cccc(c2)C(=O)NCCCN(C)CCCNc2cccc3c2C(=O)c2cccc(c2C3=O)NCCC1,SAS,"RNA-Seq, refers to: DPH5 mRNA",,"1 µM, 6 h",relative to: untreated cells,log2 fold change,0.643
COC1CN([C@H]2CC[C@H]([C@@]3(C)Oc4c(Cl)cc(C(=O)NCc5c(SC)cc(C)[nH]c5=O)c(C)c4O3)CC2)C1,,"RNA-seq, refers to: RAP1GAP","human, whole blood","dose not given, 24 h",relative to: pretreatment baseline,log2 fold change,2.68
O=C1CCCC2=C1C(c1c[nH]c3ccccc13)c1cc(Br)ccc1O2 (stereo not shown),3T3-L1,"cell growth or viability, MTT",,72 h,,IC20,104 µg/mL
CCOc1cncc(-c2ccc(NC(=O)C3(c4ccnc(NS(=O)(=O)C5CC5)n4)CCOCC3)nc2)n1,MEC1,"cell growth or viability, ATP luminescence",,72 h,,IC50,57 nM
CNS(=O)(=O)Nc1nccc(Cc2c(C)c3ccc(Oc4ncccc4F)cc3oc2=O)c1F,SNU878,cell viability,,7 days,,IC50,25.1 nM
CN1CCN(C(=O)c2ccc(-c3cc4c(N5CCC[C@H](C(=O)NCc6ccc(OC(F)(F)F)cc6)C5)ncnc4[nH]3)cc2)CC1,KARPAS-299,"cell growth or viability, MTT",,"0.2 µg/mL, 72 h",,inhibition,75.6%
CCCC[C@H](NC(C)=O)C(=O)N[C@@H](CO)C(=O)N[C@H](C(=O)N1CCC[C@H]1C(=O)N[C@]1(C)CCCCCCC=CCCC[C@@](C)(C(=O)N[C@@H](Cc2ccccc2)C(=O)N[C@@H](CCCCN)C(=O)N[C@@H](CCCNC(=N)N)C(=O)N[C@@H](CC(C)C)C(=O)N[C@@H](CCC(N)=O)C(N)=O)NC(=O)[C@H](CCCNC(=N)N)NC(=O)[C@H](CCCC)NC(=O)[C@H](CC(C)C)NC(=O)[C@H](CCCNC(=N)N)NC(=O)[C@H](CCCNC(=N)N)NC(=O)[C@H](CCCNC(=N)N)NC1=O)[C@@H](C)O,proteinase K (Tritirachium album),"proteolytic stability, LC-MS",,"25 µM, 246.0 min, pH 7.4",,remaining intact peptide,68.4% and 62.5%
CC(C)C[C@H](NC(=O)[C@H](Cc1ccccc1)NC(=O)[C@H](CCCNC(=N)N)NC(=O)[C@H](C)N)B(O)O,MM1.S,CellTiter-Glo,,"concentration not given, single agent, higher doses",,growth inhibition,100%
C=CC(=O)Nc1cccc(Cn2ncc3cnc(Nc4cnn(CCOC)c4)nc32)c1,ADCK4 human,"binding, KINOMEscan",,100 nM,lower = stronger binding,percent of control,100%
O=C(C[Se]C(=O)c1cccnc1Nc1cccc(C(F)(F)F)c1)Nc1cccc(C(F)(F)F)c1,NCI60 CNS cancer panel,five-dose screen,,,,GI50,1820 nM
COc1cc(N2CCOCC2)ccc1Nc1ncc(Cl)c(Nc2ccccc2NS(C)(=O)=O)n1,PC-9 del19/T790M/C797S,scratch wound healing,,"above 0.3 µM, 18 h",relative to: control,migration distance,decreased
COc1cc(N2CCN(C(=O)C3CCCN3)CC2)ccc1Nc1ncc(Cl)c(Nc2ccccc2P(C)(C)=O)n1 (stereo not shown),NCI-H3122,CCK-8,,"500 nM, 48 h",,viability,15%
Nc1ncc(-c2cc(-c3cnn(CC(F)(F)F)c3)ncc2F)nc1C(=O)NC1CNCC(F)C1 (stereo not shown),ERK3,KINOMEscan,,1 µM,relative to: DMSO control,remaining binding,82%
Cc1cc(NC(=O)c2cccc(NC(=O)/C(C#N)=C/C(C)(C)C)c2)ccc1Nc1nccc(-c2cccnc2)n1,HEK293 AP1 reporter cells,"AP-1 reporter gene, inhibitor",,"3 µM, 6 h, unit not given, added: PMA",relative to: PMA alone,reporter activity,0.86
COC(=O)c1cc(NC2=NC(=O)C(=Cc3ccc(C)cc3)S2)ccc1OC(C)=O,MCF7,"GC-MS, refers to: Oxalic acid",,1 µM,relative to: DMSO,metabolite level,0.81 fold change
Cc1cnc(Nc2ccc(C3CCN(C)CC3)c(F)c2)nc1Nc1ccc(Cl)c(NS(=O)(=O)C(C)(C)C)c1,MM1.S,refers to: ULK3,,"3 µM, 6 h",relative to: vehicle,protein reduction,~61%
C=CC(=O)N1CCCC(n2c(=O)c3ncccc3n(Cc3ccc(Oc4ccccc4)cc3)c2=O)C1 (stereo not shown),Rec1,refers to: ZNF710-AS1,,concentration not given,relative to: untreated,log2 fold change,0.366
CN(C)CCCN(C(=O)c1nc2ccccc2s1)c1nc2ccc(F)cc2s1,Trypanosoma cruzi,"reporter mRNA translation, inhibitor, refers to: Renilla luciferase mRNA",cell-free extract,"concentration not given, test 1",relative to: positive over negative control,translation activity,106%
Cc1ncsc1-c1ccc(C(C)NC(=O)C2CC(O)CN2C(=O)C(NC(=O)CCCCCCCCCCN2CCCC(Nc3ncc(Cl)c(Nc4ccccc4S(=O)(=O)C(C)C)n3)C2)C(C)(C)C)cc1 (stereo not shown),22Rv1,"RNA-seq, refers to: PHLDA1 mRNA",,concentration not given,relative to: DMSO,log2 fold change,-1.15
Cc1ccc(-n2cc(CSc3nc4ccccc4n3Cc3cn(-c4ccc(C)cc4)nn3)nn2)cc1,MDA-MB-231,MTT,,125 ppm,,viability,9.26%
CCN(CC)CC(=O)Nc1cccc(-n2cc(-c3ccc4ccc(-c5cn(-c6cccc(NC(=O)CN(CC)CC)c6)nn5)cc4c3)nn2)c1,RCC4,"PCR angiogenesis array, refers to: NOS3",,"5 x IC50, 4 h, normoxia",relative to: untreated,fold regulation,1.06
CO[C@@H]1[C@@H](OC(=O)c2ccc(C)[nH]2)[C@@H](O)[C@H](Oc2ccc3c(O)c(NC(=O)c4c[nH]c(C(=O)Nc5c(O)c6ccc(O[C@@H]7OC(C)(C)[C@H](OC)[C@@H](OC(=O)c8ccc(C)[nH]8)[C@H]7O)c(C)c6oc5=O)c4C)c(=O)oc3c2C)OC1(C)C,"HaCaT Tet-On cells, doxycycline-induced",,,15 µM,,cell number,6%
CCC(CC)n1c(Cc2cccs2)nc2cc(C(=O)NC(CC(=O)O)CC(C)C)ccc21 (stereo not shown),H9c2,,,"concentration not given, 48 h, added: ISO and MCM",,LDH release,decreased
COc1cccc(OC)c1-c1cc(C(=O)NC2(C(=O)O)C3CC4CC(C3)CC2C4)nn1-c1ccc(C(=O)N(C)CCCN(C)C(=O)[C@H](CCCCNC(=O)[C@H](CC(C)C)NC(=O)C2OC2C(=O)O)NC(=O)CN2CCN(CC(=O)[O-])CCN(CC(=O)[O-])CCN(CC(=O)[O-])CC2)cc1C(C)C.[177Lu+3] (mixture of isomers),HT-29,,,"concentration not given, 120 min",relative to: added activity,internalized fraction,4.96 ± 0.22%
C=CC(=O)N1[C@@H](c2ccc3c(c2)OCO3)c2[nH]c3ccccc3c2C[C@H]1C(=O)NC1CC1,rat DRG neurons,,,"30 µM, 48 h, added: vincristine 40 nM",,mean neuron degeneration,16.5%
COc1cc(/C=C/C(=O)/C=C(O)/C=C/c2ccc(OCC(=O)N3CCOCCOCCOCCOCC3)c(OC)c2)ccc1OCC(=O)N1CCOCCOCCOCCOCC1,COS-7,"cell growth or viability, SRB",,25 µM,,inhibition,100%
[BH3-][P+]1(c2ccccc2)CCCCC1,PC-3,ELISA,,"IC50, 72 h",,IL-6 level,2.4 ± 0.09 pg/mL
COc1cccc(O)c1C(=O)/C=C/c1ccc2cc(N3CCCC3)ccc2c1,HK-2,,,"concentration not given, added: cisplatin",,MDA level,decreased
Cc1cc(Cl)cc(-c2ccnc3cc(CN4C(=O)C5C(C4=O)C5(C)C)sc23)c1C[C@@H]1CNCCO1 (stereo partly shown),CHP-212 parental (wild-type USP7),PI flow cytometry,,"0.1 µM, 24 h",,cells in G2/M phase,20.2% and 18.2% and 21.4%
CC(C)OCCOCc1ccc(OCC(O)CN(N=O)C(C)C)cc1 (stereo not shown),Salmonella typhimurium,Ames test,TA98,"15.8 µg/plate, 30 % rat S9",relative to: solvent control,revertant fold increase,1 fold
C=C1C(=O)OC2C1CCC(C)(O)C13C=CC(C)(C21)C1(C3)C(=O)OC2C3C(C)C(=O)CC3C(=C)CC(OC(C)=O)C21 (stereo not shown),AML12,,,"concentration not given, added: palmitate/oleate",,ATP content,increased
Cn1ncc2cc(-c3cncc(Cl)c3N3CCC4(CCNC4=O)CC3)ccc21,LS174T,"microarray, refers to: PTGS2",,"concentration not given, 4 h, gene set COX-2",relative to: untreated cells,fold change in expression,-1.23
CC(C)c1ccc(N(C)c2ccc3c(c2)OCC[C@H]3CNc2cnccc2C(=O)O)cc1,NCI-H2171,"cell growth or viability, ATP luminescence",,7 days,,IC50,≥ 10000 nM
CCc1sc(C(=O)NC2CCN(C)CC2)cc1Br,Trypanosoma cruzi,"reporter mRNA translation, inhibitor, refers to: Renilla luciferase mRNA",cell-free extract,"concentration not given, test 1",relative to: positive over negative control,translation activity,108% and 93.2%
CCCC[C@@H]1NC(=O)[C@@H](CC(C)C)NC(=O)[C@H](CCCCNC(=O)CN2CCN(CC(=O)O)CCN(CC(=O)O)CC2)NC(=O)[C@@H](CO)NC(=O)[C@H](Cc2c[nH]cn2)NC(=O)[C@@H](Cc2c[nH]c3ccccc23)NC1=O [copper-64 labelled],,,"Balb/c mice, liver","intravenous, dose not given",,tissue uptake,21.6 ± 0.65 %ID/g
CN(C)c1ccc(-n2cc(COC(=O)[C@]3(C)C=C(C(=O)OC(C)(C)C)C(=O)CC3)nn2)cc1,HeLa,quantitative western blot,,"concentration not given, 30 (unit not given), added: EGF",,pERK/ERK ratio,0.239
CCCCCCc1cccc([C@H](O)C[C@H](CO)NC(=O)CCCCCCCCCCBr)c1,HeLa,"CERT activity, HPLC-MS/MS lipidomics, refers to: ceramide 20",,"1 µM, 24 h, not cell-number normalised",,ceramide level,107 pmol/sample and 121 pmol/sample and 116 pmol/sample
Cc1cc(NC2CCN(C)CC2)ccc1-c1cc2c(N3CCC[C@H](C(=O)N[C@H](C)c4ccccc4)C3)ncnc2[nH]1,KARPAS-299,"cell growth or viability, MTT",,"5 µg/mL, 72 h",,inhibition,88.6%
O=C(C[Se]C(=O)c1ccccc1Nc1ccccc1)Nc1cccc(C(F)(F)F)c1,NCI60 CNS cancer panel,five-dose screen,,,,GI50,1760 nM

# Excerpt of the above:
Compound,tested on,test,system,setting,scale,quantity,result
O=C(C[Se]C(=O)c1cccnc1Nc1cccc(C(F)(F)F)c1)Nc1cccc(C(F)(F)F)c1,NCI60 CNS cancer panel,five-dose screen,,,,GI50,1820 nM
COC(=O)c1cc(NC2=NC(=O)C(=Cc3ccc(N(C)C)cc3)S2)ccc1OC(C)=O,A549,refers to: BECN1,,"2.93 µM, 24 h",relative to: DMSO,mRNA level,187 fold change
CC(C)OCCOCc1ccc(OCC(O)CN(N=O)C(C)C)cc1 (stereo not shown),Salmonella typhimurium,Ames test,TA98,"15.8 µg/plate, 30 % rat S9",relative to: solvent control,revertant fold increase,1 fold
CCC(CC)n1c(Cc2cccs2)nc2cc(C(=O)NC(CC(=O)O)CC(C)C)ccc21 (stereo not shown),H9c2,,,"concentration not given, 48 h, added: ISO and MCM",,LDH release,decreased
Cc1ccc(-n2cc(CSc3nc4ccccc4n3Cc3cn(-c4ccc(C)cc4)nn3)nn2)cc1,MDA-MB-231,MTT,,125 ppm,,viability,9.26%
